Experimental data collected from several papers.
Parts stem from different laboratories: compare values within a part only. Several values in a cell are separate wells, animals, samples, runs or records.

Sample 1
Species: human
Matrix: microsomes or S9
Tested at: 2 µM
Time: 0.5 h
COc1ccc(CNC(=O)c2oc3ccc4c(c3c2C)C=CC(C)(C)O4)cc1OC gave a remaining compound of 82.2%.
With CC(c1ccc(-c2ccc(S(N)(=O)=O)cc2F)cc1)N1CCOCC1 (stereo not drawn) the remaining compound was 72.9%.
With CC(C)(C)OC(=O)N1CCCCC1CCOc1ccc2c(c1)CN(c1ccc(S(C)(=O)=O)cc1F)C2=O (stereo not drawn) the remaining compound was 60.3%.
With CCOC(=O)c1cccc(NC(=O)N2Cc3c(sc4c3CCCC4)-n3cccc3C2c2cccc(Cl)c2)c1 (stereo not drawn) the remaining compound was 50.4%.
Nc1nc2n(c1C(=O)c1ccc3c(c1)CCCC3)CCC2 gave a remaining compound of 53%.
For CC(O)CC(C)(C)CNC(=O)Nc1cc(CC(C)(C)C)nn1C (stereo not drawn), the remaining compound was 31.8%.
The remaining compound of OCC1O[C@@H](Oc2cc(O)cc(C3c4c(/C=C/c5ccc(O)cc5)cc(O)cc4OC3c3ccc(O)cc3)c2)C(O)[C@H](O)[C@@H]1O (stereo partly drawn) is reported as > 99%.

Sample 2
SMILES: CC(C)C[C@@H]1NC(=O)[C@@H](N(C)C(=O)[C@H](CC2CCC2)NC(=O)[C@@H]2C[C@@H](F)CN2C(=O)C2(C(F)(F)F)CC(F)(F)C2)CCCCNC(=O)C2(CC2)NC(=O)[C@H](Cc2cc(Cl)ccc2Cl)N(C)C1=O
Method: PI flow cytometry
Time: 24 h
The “S phase cells” was 31.9% and 32.4% and 20.8% (HCC4006; 200 nM).
NCI-H1299; 20 nM — “S phase cells”: 14.2% and 17.8% and 19.6%.
The “S phase cells” was 23.8% and 25.5% and 23.3% (NCI-H446; 20 nM).
For NCI-H446; 200 nM: “S phase cells” read 17.1% and 26.8% and 19.4%.

Sample 3
Cell line: mouse MPNST tumor cells
Method: high-content immunofluorescence imaging
Refers to: nuclear SOX9
Tested at: 10 µM
Time: 12 h
Notes: mean of 2 replicates
Reference: DMSO control
Direction: higher = more nuclear SOX9
NCCCC(N)(C(=O)O)C(F)F (stereo not drawn) — result for “nuclear SOX9 intensity”: 78.4 % of DMSO.
O=C1CCCC(=O)C1C(=O)c1ccc(C(F)(F)F)cc1[N+](=O)[O-]: “nuclear SOX9 intensity” 88.4 % of DMSO.
CC(C)Cn1c(=O)n(C)c(=O)c2[nH]cnc21: “nuclear SOX9 intensity” 102 % of DMSO.
Under “nuclear SOX9 intensity”, CC(C)N(CCCNC(=O)Nc1ccc(C(C)(C)C)cc1)C[C@H]1O[C@@H](n2cc(Br)c3c(N)ncnc32)[C@H](O)[C@@H]1O is recorded as 230 % of DMSO and 152 % of DMSO.
O=C(CNC(=O)c1ccc(-c2ccccc2)cc1)NC1CCCc2ccccc21 (stereo not drawn): “nuclear SOX9 intensity” 103 % of DMSO.

Other studies, line by line
For N#CC1(c2ccccn2)CCN(Cc2cc(C(=O)N3CCCC3)c(=O)n3ccccc23)CC1, “cells with bright nuclei” read 62% (MRC9 fibroblasts; Hoechst high-content imaging; 10-fold recommended concentration, 24 h).
CC(C)(C)c1cnc(CSc2cnc(NC(=O)C3CCN(CCCCSc4cccc5c4C(=O)N(C4CCC(=O)NC4=O)C5=O)CC3)s2)o1 (stereo not drawn) gave a viability of 100% (HH; CCK-8; 100 nM).

Some of these lines once more (sample 2):
NCI-H1299; 20 nM — “S phase cells”: 14.2% and 17.8% and 19.6%.
